Measured values collected from several papers.
Protocols differ between the studies behind these lines.
Cell line: MIA PaCa-2

Compound	test	conditions	IC50 [µM]
Cc1c(-c2cccc(C3=NCCN3)c2)oc(-c2cccc(C3=NCCN3)c2)c1C	cell growth or viability, SRB		0.3
C=C1CC[C@@H]2O[C@@]2(C)CC[C@H]2[C@H]1C[C@]2(C)C(=O)/C=C/C(C)(O)CO (stereo partly shown)	cell growth or viability, CCK-8	72 h	2.52
Cc1ccc(C(C)C)cc1.[Cl-].[Cl-].[Ru+2].c1ccc(P(=Nc2cccc3cccnc23)(c2ccccc2)c2ccccc2)cc1	cell growth or viability, MTT	24 h	7
Clc1cc(Br)c2c(c1)CCc1cccnc1C2=C1CCNCC1	cell growth or viability, SRB		18
COc1ncc(-c2ccc3c(Nc4cc(Oc5cc(F)cc(F)c5)cc(C(=O)O)c4)c(S(=O)(=O)NC4CC4)cnc3c2)c(OC)n1	lactate production, measured: lactate in supernatant	6 h	0.3
COC(=O)[C@@H](Cc1cn(Cc2ccccc2)nn1)NC(=O)OCC1c2ccccc2-c2ccccc21	cell growth or viability, MTS	72 h	1.12
C1=CCCC=CCC1.F[P-](F)(F)(F)(F)F.[Pt+][c]1ccccc1P(=Nc1ccccc1)(c1ccccc1)c1ccccc1	cell growth or viability, MTT	24 h	1.03
CCCCCCCCCCCCCCCCCC(=O)Nc1ccn(C2OC(CO)C(O)C2(F)F)c(=O)n1 (stereo not shown)	cell growth or viability, resazurin	48 h, 3D culture	39.1
COc1ccc2c(c1)C(=C1Nc3ccccc3C1=NOCC(O)CO)C(=O)N2 (stereo not shown)	cell growth or viability, MTS	48 h	0.68
Cc1ccc(C(C)C)cc1.F[P-](F)(F)(F)(F)F.O=C(N=P(c1ccccc1)(c1ccccc1)c1ccccc1)c1ccccn1.[Cl-].[Ru+2]	cell growth or viability, MTT	24 h	2.4
O=C(CSc1nnc(-c2ccccc2)o1)N1CCC(=C2c3ncccc3CCc3cc(Cl)cc(Br)c32)CC1	cell growth or viability, SRB		> 120
COC(=O)[C@H]1[C@H]2C[C@H]3O[C@@]4(CCN3C[C@H]2C[C@@H](OC(=O)c2cc(OC)c(OC)c(OC)c2)[C@@H]1OC)C(=O)Nc1cc(OC)c(-c2ccc(F)cc2)cc14	cell growth or viability, crystal violet	72 h	7.04
Cc1ccc(C(C)C)cc1.O=C(N=P(c1ccccc1)(c1ccccc1)c1ccccc1)c1[c-]cccc1.[Cl-].[Ru+2]	cell growth or viability, MTT	24 h	8.2
COC(=O)[C@@H]1[C@@H](OC)[C@H](OC(=O)c2cc(OC)c(OC)c(OC)c2)C[C@@H]2CN3CC[C@]4(O[C@@H]3C(=O)[C@@H]21)C(=O)Nc1cc(OC)c(-c2ccc(C(F)(F)F)cc2)cc14	cell growth or viability, crystal violet	72 h	1.9
COC(=O)[C@@H](Cc1cn(Cc2ccc(Cl)cc2)nn1)NC(=O)OCC1c2ccccc2-c2ccccc21	cell growth or viability, MTS	72 h	1.14
O=C(CN1CCN(c2nsc3ccccc23)CC1)N1CCC(=C2c3ncccc3CCc3cc(Cl)cc(Br)c32)CC1	cell growth or viability, SRB		< 15
C=C1CCC(=O)C(C)CCC2C1CC2(C)C(=O)C=CC(C)(C)O (stereo not shown)	cell growth or viability, CCK-8	72 h	4.07
Nc1ccc(/C=C/C(=O)N2CCc3c(oc4c(-c5ccc(F)cc5)cc(-c5ccc(C(=O)N6CCC(F)(F)CC6)cc5)cc34)C2)cn1	cell growth or viability, CCK-8	72 h	~2
COC(=O)[C@H]1[C@H]2C[C@H]3O[C@@]4(CCN3C[C@H]2C[C@@H](OC(=O)c2cc(OC)c(OC)c(OC)c2)[C@@H]1OC)C(=O)Nc1cc(OC)c(-c2ccccc2)cc14	cell growth or viability, crystal violet	72 h	21.8
C=C1CC[C@@H]2O[C@@]2(C)CC[C@H]2[C@H]1C[C@]2(C)C(=O)/C=C/C(C)(O)COC(C)=O (stereo partly shown)	cell growth or viability, CCK-8	72 h	2.54
Nn1c(SCC(=O)N2CCC(=C3c4ncccc4CCc4cc(Cl)cc(Br)c43)CC2)nnc1-c1ccccc1	cell growth or viability, SRB		37
COC(=O)[C@H]1[C@H]2C[C@H]3O[C@@]4(CCN3C[C@H]2C[C@@H](OC(=O)c2cc(OC)c(OC)c(OC)c2)[C@@H]1OC)C(=O)Nc1cc(OC)c(Br)cc14	cell growth or viability, crystal violet	72 h	21.2

A few entries again:
Compound	test	conditions	IC50 [µM]
Cc1ccc(C(C)C)cc1.F[P-](F)(F)(F)(F)F.O=C(N=P(c1ccccc1)(c1ccccc1)c1ccccc1)c1ccccn1.[Cl-].[Ru+2]	cell growth or viability, MTT	24 h	2.4
C=C1CC[C@@H]2O[C@@]2(C)CC[C@H]2[C@H]1C[C@]2(C)C(=O)/C=C/C(C)(O)COC(C)=O (stereo partly shown)	cell growth or viability, CCK-8	72 h	2.54
COc1ncc(-c2ccc3c(Nc4cc(Oc5cc(F)cc(F)c5)cc(C(=O)O)c4)c(S(=O)(=O)NC4CC4)cnc3c2)c(OC)n1	lactate production, measured: lactate in supernatant	6 h	0.3
C=C1CC[C@@H]2O[C@@]2(C)CC[C@H]2[C@H]1C[C@]2(C)C(=O)/C=C/C(C)(O)CO (stereo partly shown)	cell growth or viability, CCK-8	72 h	2.52
